# Published values of several laboratories.
# Every numbered part comes from another study and shows a few of its results, in no order.

# Sample 1 — technique: universal PBM; form: double-stranded DNA, one strand shown; sample: in vitro; tested at: 600 nM; direction: higher = stronger binding
# Target: Sal-like protein 4, full length isoform A (SALL4, Homo sapiens, UniProt Q9UJQ4, residues 1-1053)
# Chain of UniProt Q9UJQ4 (whole entry, looked up): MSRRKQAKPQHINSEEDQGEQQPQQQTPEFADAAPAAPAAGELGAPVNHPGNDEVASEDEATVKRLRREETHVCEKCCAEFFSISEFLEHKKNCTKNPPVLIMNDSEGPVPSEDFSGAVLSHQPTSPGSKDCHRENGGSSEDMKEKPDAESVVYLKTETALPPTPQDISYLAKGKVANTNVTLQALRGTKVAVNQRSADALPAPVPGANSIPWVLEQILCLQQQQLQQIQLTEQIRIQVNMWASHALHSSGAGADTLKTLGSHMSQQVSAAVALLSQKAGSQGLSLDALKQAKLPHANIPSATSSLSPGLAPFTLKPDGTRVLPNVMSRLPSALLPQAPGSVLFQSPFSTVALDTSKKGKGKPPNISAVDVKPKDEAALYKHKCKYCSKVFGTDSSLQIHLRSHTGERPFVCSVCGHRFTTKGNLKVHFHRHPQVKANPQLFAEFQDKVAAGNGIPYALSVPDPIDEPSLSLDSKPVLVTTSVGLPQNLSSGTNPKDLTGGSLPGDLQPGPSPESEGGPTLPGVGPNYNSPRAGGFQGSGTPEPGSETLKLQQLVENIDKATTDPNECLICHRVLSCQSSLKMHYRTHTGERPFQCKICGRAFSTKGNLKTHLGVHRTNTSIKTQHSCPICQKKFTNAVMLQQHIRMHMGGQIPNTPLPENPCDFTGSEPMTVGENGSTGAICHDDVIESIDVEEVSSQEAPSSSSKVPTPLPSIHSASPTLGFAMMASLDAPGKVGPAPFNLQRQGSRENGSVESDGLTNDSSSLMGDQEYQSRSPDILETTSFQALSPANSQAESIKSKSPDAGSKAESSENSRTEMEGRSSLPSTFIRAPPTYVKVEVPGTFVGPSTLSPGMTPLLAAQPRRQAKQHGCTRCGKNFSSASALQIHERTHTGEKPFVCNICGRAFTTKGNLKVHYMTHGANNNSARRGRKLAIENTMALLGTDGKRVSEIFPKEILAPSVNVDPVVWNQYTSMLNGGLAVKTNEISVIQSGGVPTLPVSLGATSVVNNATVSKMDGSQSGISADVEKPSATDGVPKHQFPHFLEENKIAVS
# Notes: 8-mer, flanks averaged, mean of replicates
Sequence,E-score
GATGTTGC,0.0173
CTAAGCGA,-0.269
ACCTAGGT,-0.189
TACATGGA,0.147
AAAGTCCC,-0.00722
CTTAGGGC,-0.0936
ATGGAAGA,0.244
CAAAAAGG,0.0751

# Sample 2 — technique: competition protein-binding microarray; form: double-stranded DNA, one strand shown; sample: in vitro; tested at: 2 µM; added: Cbf1 competitor, 0.05 µM; direction: higher = stronger binding; constant ends, left off below: … GTCTTGATTCGCTTGACGCTGCTG
# Target: Phosphate system positive regulatory protein PHO4, full length, GST-tagged (PHO4, Saccharomyces cerevisiae, UniProt P07270, residues 1-312)
# Notes: whole 60-bp probe, lowest competitor level
# Construct (chain): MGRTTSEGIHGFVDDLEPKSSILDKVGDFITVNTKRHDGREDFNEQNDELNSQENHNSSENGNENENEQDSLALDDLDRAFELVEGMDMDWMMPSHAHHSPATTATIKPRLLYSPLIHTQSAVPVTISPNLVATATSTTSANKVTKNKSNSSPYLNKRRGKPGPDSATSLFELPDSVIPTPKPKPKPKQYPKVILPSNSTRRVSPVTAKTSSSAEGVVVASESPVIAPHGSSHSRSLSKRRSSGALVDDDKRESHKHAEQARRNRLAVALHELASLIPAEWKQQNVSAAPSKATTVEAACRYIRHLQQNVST
Sequence,fluorescence intensity
TTCTTCCAACACCGACACGTTGTTCTCGCTCTCTTC,11500 a.u.
CTCCAGAAATCGGGCCACATGACAAAGCCCGTAGAC,7850 a.u.
ACTCGCATGTTACCGTCCGTGACGGACTCCTTTGTG,5690 a.u.
CTTCTGTAAATTTGTCTTGTGGGTGGACGCGCCCCG,4620 a.u.
AATGCTGAGAGTAGGCACATGGAGTAGCTTGAGTCA,8840 a.u.
CGGGAACGCAAATGCATCGTGGTGAAATGATAAATC,9040 a.u.
CGTCCTAGTGATTGTACCGTGGGTGCCATGAGGAAG,7620 a.u.

# Sample 3 — technique: protein-binding microarray; form: double-stranded DNA, one strand shown; sample: in vitro; tested at: 2200 nM top; notes: 60-bp whole probe; added: salmon DNA 0.4 mg/ml; relative to: random background probes; direction: higher = stronger binding; constant ends, left off below: GCCTAGCAC … GTCTTGATTCGCTTGACGCTGCTG
# Target: Interferon regulatory factor 7, full length, phosphomimetic (IRF7, Homo sapiens, UniProt Q92985, residues 1-503, S471D/S472D/S475D/S476D/S477D/S483D/S484D/S487D)
# Residues (chain): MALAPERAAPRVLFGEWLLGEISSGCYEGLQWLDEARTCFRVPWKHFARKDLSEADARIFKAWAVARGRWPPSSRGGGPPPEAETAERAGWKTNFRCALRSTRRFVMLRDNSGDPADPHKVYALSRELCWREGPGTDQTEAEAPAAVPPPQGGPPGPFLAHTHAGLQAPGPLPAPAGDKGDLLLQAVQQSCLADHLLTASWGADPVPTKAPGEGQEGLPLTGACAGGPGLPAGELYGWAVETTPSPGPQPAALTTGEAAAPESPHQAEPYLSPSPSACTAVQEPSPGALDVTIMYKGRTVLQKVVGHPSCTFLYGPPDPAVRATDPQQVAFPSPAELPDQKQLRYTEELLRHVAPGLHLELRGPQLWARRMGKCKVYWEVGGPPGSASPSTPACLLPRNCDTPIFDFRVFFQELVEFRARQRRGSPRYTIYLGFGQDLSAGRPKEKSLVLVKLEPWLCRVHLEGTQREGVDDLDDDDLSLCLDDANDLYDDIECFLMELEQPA
Sequence,fitted relative affinity [z-score]
TTAGATTTCATACTGGATTAGTGCTAG,0.282
TTAGGTTTCGGACTGGGTGAGTGCTAG,3.41
TTAGGTCTCGGGACTGGGTTAGTGCTA,-0.423
GACGGTCTCCGACTGCTGACGTGCTAG,-0.355
GACGGACTGGGTTTGGGGACGTGCTAG,-0.814
CCCTTTTCATGCTCTTATATAGTGCTA,2.49

# Single results of other studies
Substance,target,test,test system,setting,scale,endpoint,result
"PhoQ, residues 284 288 289 292 302 303 DDMDFR","PhoP, residues 12 14 15 18 19 NQGLL (Escherichia coli, UniProt P23836)","Sort-seq, measured: YFP reporter",E. coli,"PhoQ-PhoP variant library, added: 10 µM Mg2+","relative to: high Mg2+ state, higher = stronger signaling",fold induction,1.04

# A few entries again (sample 2):
Sequence,fluorescence intensity
TTCTTCCAACACCGACACGTTGTTCTCGCTCTCTTC,11500 a.u.
CTCCAGAAATCGGGCCACATGACAAAGCCCGTAGAC,7850 a.u.
ACTCGCATGTTACCGTCCGTGACGGACTCCTTTGTG,5690 a.u.
